Assay results from different studies.
Protocols differ between the studies behind these lines. ± marks the error that the study gave.
Organism: SARS-CoV-2

Compound = CCOC(=O)c1c(CSc2ccccc2)n(C)c2cc(-c3cccnc3)c(O)c(CN3CCN(CCOCCO)CC3)c12; test system = Vero C1008, MEX-BC2/2020; conditions = 96 h; EC50 = 4300 nM
Compound = CN1CCN(C(=O)C[C@H](Cc2ccc(F)cc2)NC(=O)[C@@H](Cc2ccc(Cl)cc2Cl)NC(=O)[C@H](N)Cc2ccccc2C#N)CC1; test = viral replication; test system = USA-WA1/2020; conditions = 24 h; EC50 = 3100 nM
Compound = CC(C)C(=O)OC[C@H]1O[C@@](C#N)(n2ccc(N)nc2=O)[C@H](O)[C@@H]1O; test = viral replication, qRT-PCR of viral RNA; test system = Caco-2, Washington; EC50 = 2100 ± 400 nM
Compound = CN(C)CCCCNC(=O)C[C@H](Cc1ccc(F)cc1)NC(=O)[C@@H](Cc1ccccc1Cl)NC(=O)[C@H](N)Cc1ccccc1C#N; test = viral replication; test system = USA-WA1/2020; conditions = 24 h; EC50 = > 10000 nM
Compound = CCC1OC(C2(C)CC(C)C(O)(C3(C)CCC(C(O)C4(O)OC(CC5(O)OC(C(C)C(O)CC6CCC(C)C(C(C)C(=O)O)O6)CCC5C)C(C)CC4C)O3)O2)CCC1(C)O (stereo not shown); test = cytopathic effect; test system = Vero E6-hTMPRSS2; EC50 = 14 nM
Compound = CN(C)c1ccc(N(Cc2cc(Cl)cs2)C(=O)Cc2cncc3ccccc23)cc1; test = dsRNA staining; test system = Calu-3, Omicron BA.5; EC50 = 300 nM
Compound = O=C(c1cncc2cc[nH]c12)N1CCC(=C2c3ccccc3CS(=O)(=O)c3ccccc32)CC1; test = viral replication; test system = USA-WA1/2020; EC50 = 14 nM
Compound = C[C@](C(=O)NC1CCOCC1)(c1cncnc1)N(C(=O)[C@H](F)Cl)c1ccc(OC(F)(F)Cl)cc1; test = viral replication; test system = Vero C1008, XBB.1; EC50 = 40 nM
Compound = C#CCCCNCCNc1ccnc2cc(Cl)ccc12; test = viral replication; test system = Vero 76, MUC-IMB-1/2020; conditions = 30 h; EC50 = 2900 ± 2500 nM
Compound = CC(=O)OC1(C)CC(C=C(C)CCC=C(C)C)OC2(C=C(CO)C3CC(=O)C(C)=CC3O2)C1 (stereo not shown); test = viral replication, refers to: nucleocapsid protein; test system = Calu-3, Delta B.1.617.2; EC50 = 4900 nM
Compound = Clc1ccc(CN2CCCC3=CC4CC(CN5CCCCC45)C32)cc1 (stereo not shown); test = pseudovirus entry; conditions = pseudovirus; EC50 = 116000 nM
Compound = CCOc1ccc2nc3cc(N)ccc3c(N)c2c1; test = viral replication, plaque; test system = Vero C1008; conditions = 16 h; EC50 = 80 ± 10 nM
Compound = NCCNc1ccnc2cc(Cl)ccc12; test = viral replication; test system = Vero 76, MUC-IMB-1/2020; conditions = 30 h; EC50 = 1500 ± 1000 nM
Compound = CCC(CC)COC(=O)[C@H](C)N[P@](=O)(OC[C@H]1O[C@@](C#N)(c2ccc3c(N)ncnn23)[C@H](O)[C@@H]1O)Oc1ccccc1; test = viral replication; conditions = 1 h; EC50 = 294 nM
Compound = Cc1ccc(OCCN(C)C)cc1C(=O)N[C@H](C)c1cc(-c2cnn(C)c2)cc(-c2cnn(C)c2)c1; test = viral replication; test system = Caco-2, icSARS-CoV-2-nLuc reporter; EC50 = 310 nM
Compound = COc1cccc2[nH]c(C(=O)N[C@@H](CC(C)C)C(=O)N[C@@H](C[C@@H]3CCNC3=O)C(=O)c3nc4ccccc4s3)cc12; test = viral replication; test system = VeroE6, WK-521 (ancestral Wuhan); EC50 = 2600 ± 70 nM
Compound = Clc1ccc(CN2CCCC3=CC4CC(CN5CCCCC45)C32)cc1Cl (stereo not shown); test = pseudovirus entry; test system = Huh-7; EC50 = 28200 nM
Compound = CCn1ccc(-c2cc(-c3cnn(C)c3)cc([C@@H](C)NC(=O)c3cc(OCCN(C)C)ccc3C)c2)n1; test = viral replication; test system = Caco-2, icSARS-CoV-2-nLuc reporter; EC50 = 420 nM
Compound = CN(C)c1ccc(N(Cc2cc(Cl)cs2)C(=O)Cc2cncc3cccc(O)c23)cc1; test = viral replication, dsRNA staining; test system = Calu-3, Omicron BQ.1.1; EC50 = 28 nM
Compound = C[C@@H]1O[C@@H](n2c3ccccc3c3c4c(c5c6ccccc6[nH]c5c32)CNC4=O)C[C@@H](N)[C@H]1O; test = viral replication, nucleocapsid staining; test system = Calu-3, Delta B.1.617.2; EC50 = 600 nM
Compound = N#Cc1ccccc1C[C@@H](N)C(=O)N[C@H](Cc1ccc(Cl)cc1Cl)C(=O)N[C@H](CC(=O)NCCCNc1nnc(N)[nH]1)Cc1ccc(F)cc1; test = viral replication; test system = USA-WA1/2020; conditions = 24 h; EC50 = > 10000 nM
Compound = O=C(CN1CCCC2=CC3CC(CN4CCCCC34)C21)Nc1cc(Br)ccc1F (stereo not shown); test = pseudovirus entry; conditions = pseudovirus; EC50 = 57500 nM
Compound = CC(C)[C@H](NC(=O)c1ccccc1[Se][Se]c1ccccc1C(=O)N[C@H](C(=O)O)C(C)C)C(=O)O; test = viral replication, RT-qPCR; test system = Vero; conditions = 48 h; EC50 = 32000 nM
Compound = C#CCNC(=O)C[C@H](Cc1ccc(F)cc1)NC(=O)[C@@H](Cc1ccc(Cl)cc1Cl)NC(=O)[C@H](N)Cc1ccccc1C#N; test = viral replication; test system = USA-WA1/2020; conditions = 24 h; EC50 = 900 nM
Compound = Cc1ccc(CNC(=O)c2ccccc2I)cc1C(=O)N[C@H](C)c1cccc2ccccc12; test = viral replication; test system = Vero C1008, WK-521 ancestral Wuhan; EC50 = 13200 ± 900 nM
Compound = CCOC(=O)[C@@H](NC(=O)c1ccccc1[Se][Se]c1ccccc1C(=O)N[C@H](C(=O)OCC)C(C)C)C(C)C; test = viral replication, RT-qPCR; test system = Vero; conditions = 48 h; EC50 = 15000 nM
Compound = C=C1CCC2[C@](C)(CO)[C@H](O)CC[C@@]2(C)[C@@H]1/C=C/C1=CCOC1=O (stereo partly shown); test = plaque reduction; test system = Vero E6, B.3; conditions = 72 h; EC50 = > 10000 nM
Compound = Cc1cc(C(=O)COn2nnc3ccc(S(C)(=O)=O)cc32)c(C)n1C; test = viral replication, cell-based; EC50 = inactive
Compound = Cc1cc(C)n(-c2nc(-c3ccccc3)cc(=O)n2CC(=O)Nc2cccc([N+](=O)[O-])c2)n1; test = viral RNA, qPCR; test system = wild type; conditions = 24 h; EC50 = 1950 nM
Compound = CO/C1=C\C(C)=C\[C@@H](C)[C@@H](O)[C@@H](C)C/C(C)=C/C=C/[C@H](OC)[C@@H]([C@@H](C)[C@@H](O)[C@H](C)C(=O)/C=C/[C@H](C)[C@H](O)C(C)C)OC1=O; test = viral replication, refers to: nucleocapsid protein; test system = Calu-3, Omicron BA.2; EC50 = 4.6 nM
Compound = Cc1ccc(CNC(=O)c2ccccc2Br)cc1C(=O)N[C@H](C)c1cccc2ccccc12; test = viral replication; test system = Vero C1008, WK-521 ancestral Wuhan; EC50 = 59200 ± 4400 nM
Compound = O=C1CC(c2ccccc2)Oc2cc(O[C@@H]3O[C@H](CO)[C@@H](O)[C@H](O)[C@H]3O)ccc21 (stereo partly shown); test = viral replication; test system = Vero; EC50 = > 100000 nM
Compound = O=C(CCCCCCCCCCc1ccc(O)c(O)c1)c1c(O)cccc1O; test = MTT; test system = Vero E6/TMPRSS2, WK-521 ancestral; EC50 = 14000 nM
Compound = N#Cc1ccccc1CC(N)C(=O)NC(Cc1ccc(Cl)cc1Cl)C(=O)NC(CC(=O)NCCCCN1CCCC1)Cc1ccc(F)cc1 (stereo not shown); test = viral replication; test system = USA-WA1/2020; conditions = 24 h; EC50 = 700 nM
Compound = Cc1ccc(N2CC(N3CCC(C)(O)CC3)C2)cc1C(=O)NC1(c2ccc3c4c(cccc24)CC3)CC1; test = viral replication; test system = Vero C1008, Omicron BA.5; EC50 = 409 nM
Compound = O=C(c1cccc(-n2cccc2)c1)N1CCCN(S(=O)(=O)c2ccc(F)cc2)CC1; test = viral replication; EC50 = > 100000 nM
Compound = CC(C)(C)[C@H](NC(=O)C(F)(F)F)C(=O)N1C[C@H]2[C@@H]([C@H]1C(=O)N[C@H](C#N)C[C@@H]1CCNC1=O)C2(C)C; test = dsRNA staining; test system = Calu-3, Omicron BA.5; EC50 = 700 nM
Compound = CNC(=O)C[C@H](Cc1ccncc1)NC(=O)[C@@H](Cc1cccc(Br)c1)NC(=O)[C@@H](N)Cc1ccsc1; test = viral replication; test system = USA-WA1/2020; conditions = 24 h; EC50 = > 10000 nM
Compound = Cc1ccc(NC(=O)CN2CCCC3=CC4CC(CN5CCCCC45)C32)c(Cl)c1 (stereo not shown); test = pseudovirus entry; conditions = pseudovirus; EC50 = 77400 nM
Compound = [2H]C1([2H])CC[C@@H](C[C@@H](C#N)NC(=O)[C@@H]2[C@@H]3[C@H](CN2C(=O)[C@@H](NC(=O)C(F)F)C(C)(C)C)C3(C)C)C(=O)N1; test = viral replication; test system = Canada/VIDO 01/2020; conditions = together with: efflux inhibitor CP-100356; EC50 = 40 nM
Compound = Cc1ccc(O)cc1CN(C)[C@H](C)c1cccc2ccccc12; test = viral replication; test system = Caco-2-hACE2, USA-WA1/2020; conditions = 24 h; EC50 = ≤ 10000 nM
Compound = COc1ccc(Cl)cc1C(=O)NCc1ccc(C)c(C(=O)N[C@H](C)c2cccc3ccccc23)c1; test = viral replication; test system = Vero C1008, WK-521 ancestral Wuhan; EC50 = 18900 ± 700 nM
Compound = Cc1ccccc1CN1CCCC2=CC3CC(CN4CCCCC34)C21 (stereo not shown); test = pseudovirus entry; conditions = pseudovirus; EC50 = 97000 nM
Compound = Cc1cc(Cl)ccc1C(=O)NCc1ccc(C)c(C(=O)N[C@H](C)c2cccc3ccccc23)c1; test = viral replication; test system = Vero C1008, WK-521 ancestral Wuhan; EC50 = > 100000 nM
Compound = C[C@H](c1cccc2ccccc12)N(C)Cc1cccc2[nH]ccc12; test = viral replication; test system = Vero E6, USA-WA1/2020; conditions = 24 h; EC50 = 7880 nM
Compound = Cc1ccc(CNC(=O)c2cc(F)c(Br)cc2Cl)cc1C(=O)N[C@H](C)c1cccc2ccccc12; test = viral replication; test system = Vero C1008, WK-521 ancestral Wuhan; EC50 = > 100000 nM
Compound = O=C(CN1CCCC2=CC3CC(CN4CCCCC34)C21)Nc1ccc(Cl)cc1 (stereo not shown); test = pseudovirus entry; conditions = pseudovirus; EC50 = 103000 nM
Compound = Cc1ccc(OCCN(C)C)cc1C(=O)N[C@H](C)c1cc(-c2cnn(CF)c2)cc(-c2ccn(C)n2)c1; test = viral replication; test system = Caco-2, icSARS-CoV-2-nLuc reporter; EC50 = 860 nM
Compound = N#Cc1ccccc1CC(N)C(=O)NC(Cc1ccc(Cl)cc1Cl)C(=O)NC(CC(=O)NCCCc1ccncc1)Cc1ccc(F)cc1 (stereo not shown); test = viral replication; test system = USA-WA1/2020; conditions = 24 h; EC50 = 1000 nM
Compound = Cc1ccc(N2CC3CC(C2)N3)cc1C(=O)NC1(c2ccc3c4c(cccc24)C(=O)N3C)CC1; test = viral replication; test system = Vero C1008, Omicron BA.5; EC50 = 200 nM
Compound = C=CCn1c(C)cc(C(=O)COn2nnc3ccc(S(=O)(=O)N(C)C)cc32)c1C; test = viral replication; EC50 = > 100000 nM
Compound = CC(C)CCC1=C(O)C(=O)c2ccccc2C1=O; test = viral replication; test system = Calu-3; conditions = 48 h; EC50 = 1800 ± 200 nM
